Measurements collected from several papers.
A part holds a random share of what one study measured. Positions count from the first letter of the parent shown.

Series 1
Target: Prothrombin, mature alpha-thrombin (F2, Homo sapiens, UniProt P00734)
Technique: aptamer microarray, sandwich
Molecule type: DNA with 2'F-ANA
Matrix: in vitro
Tested at: 200 nM
Notes: whole 15-mer aptamer, many near background
With: Cy3 exosite-II aptamer, 400 nM
Reading: higher = stronger binding
Measurement: mean fluorescence intensity
Sequence: GGTTGGTGTGGTTGG
Modification = 2'F-ANA at 2 4 5 8 10 12 13 15; value = 53.3 a.u.
Modification = 2'F-ANA at 1 3 4 5 7 8 10 13 15; value = 49.1 a.u.
Modification = 2'F-ANA at 3 4 8 10 11; value = 243 a.u.
Modification = 2'F-ANA at 1 3 4 5 7 9 11 12 13 14 15; value = 63 a.u.
Modification = 2'F-ANA at 1 5 8 13 15; value = 48.8 a.u.
Modification = 2'F-ANA at 1 5 7 8 10 13 14 15; value = 56 a.u.
Modification = 2'F-ANA at 2 4 7 9 13 14 15; value = 84.3 a.u.
Modification = 2'F-ANA at 1 2 3 7 9 11 12 13 14; value = 115 a.u.

Series 2
Target: POU domain, class 5, transcription factor 1, POU domain (Pou5f1, Mus musculus, UniProt P20263, residues 131-289)
UniProt P20263, sequence (131-289, looked up): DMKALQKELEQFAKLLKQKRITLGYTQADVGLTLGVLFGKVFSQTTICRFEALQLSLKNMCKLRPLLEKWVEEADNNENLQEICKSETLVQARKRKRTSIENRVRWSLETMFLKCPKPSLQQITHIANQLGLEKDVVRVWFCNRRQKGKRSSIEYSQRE
Technique: Spec-seq
Molecule type: double-stranded DNA, one strand shown
Matrix: in vitro
Tested at: not given
Notes: whole probe, mean of replicates
Baseline: not given
Reading: lower = stronger binding
Measurement: relative binding energy
All sequences stand within: GAGTCGTCTCGTCAGCAC … CCGTAGAGCACTCAGGTC
Sequence = ATGCTCTA; value = 0.616 ln ratio
Sequence = GTATTAAT; value = 0.158 ln ratio
Sequence = TTAGTAAT; value = 0.273 ln ratio
Sequence = TACGTAAT; value = 0.715 ln ratio
Sequence = TTCTTAAT; value = 0.549 ln ratio
Sequence = ATGAGAAT; value = 0.253 ln ratio
Sequence = ATGCCAAC; value = 0.445 ln ratio
Sequence = GAACTAAT; value = 0.464 ln ratio

Other studies, line by line
P1: viral docking peptide; KKAKRRLFTISDS; partner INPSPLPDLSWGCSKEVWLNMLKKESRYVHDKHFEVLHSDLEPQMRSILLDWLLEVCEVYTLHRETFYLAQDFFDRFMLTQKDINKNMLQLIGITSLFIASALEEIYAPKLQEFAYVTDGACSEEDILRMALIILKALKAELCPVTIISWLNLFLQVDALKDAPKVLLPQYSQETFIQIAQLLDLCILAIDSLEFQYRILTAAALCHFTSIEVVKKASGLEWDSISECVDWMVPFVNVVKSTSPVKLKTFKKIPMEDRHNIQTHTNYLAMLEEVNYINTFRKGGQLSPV
Molecule = FSAF1 (Homo sapiens, UniProt Q8NDD1); target or system = DCAF13 (Homo sapiens, UniProt Q9NV06); test = cross-linking MS; system = cell fractions; setting = with: DSSO; measurement = cross-linked residues; value = Y211 to K49
Molecule = P1 K2A; target or system = CCNE2, cyclin fold, Cln2 fusion (human); test = yeast growth competition, sequencing; system = yeast; setting = strong parent motif; scale = baseline: not given, higher = stronger binding; measurement = normalised enrichment score; value = 2.46
Molecule = SRP54 (Homo sapiens, UniProt P61011); target or system = SRP68 (Homo sapiens, UniProt Q9UHB9); test = cross-linking MS; setting = hits only; measurement = interaction screen; value = cross-linked
